Assay results of several laboratories.
Each line is one published result; not all experiments were run side by side. “And” joins repeats or separate records; there may be more than shown. ± marks the error that the study gave.

With Cc1nc2cc(NCc3ccc(C(F)(F)F)cc3)ccc2s1 the viability was 101 ± 1.51% (sample A patient iPSC-derived NPCs; MTS; 10 µM, 24 h; relative to: vehicle).
For CCn1c2ccc(CNC)cc2c2ccc(-c3cc(C)cs3)cc21, the inhibition was 30 to 40% (U2OS p53 wild type; cell viability; 10 µM, 72 h, highest concentration tested).
Cn1cc(Nc2nccc(-c3ccc4c(c3)CN(C3COC3)CC[C@H]4NC(=O)c3cn(C(C)(C)C)nn3)n2)cn1 — result for “pathway activation z-score”: 0.258 (mouse splenic B cells; item: Telomerase signalling; 30 mg/kg, IgD-activated in vivo; relative to: vehicle, direction not given).
C[C@H](CCC(=O)NCCS(=O)(=O)O)[C@H]1CC[C@H]2[C@@H]3CC[C@@H]4C[C@H](O)CC[C@]4(C)[C@H]3CC[C@]12C gave a proliferation increase of 55% (rat PCK cystic cholangiocytes; cell counting; 20 µM, 24 h; relative to: untreated).
The EC50 of CCn1cc(-c2cc(Cn3ccnc3)cc3c2CCN([C@H](c2cc(OC)ccn2)C2CC2)C3=O)c(C(F)(F)F)n1 is reported as 0.0326 µM (MV4-11; cell growth, inhibitor; 120 h).
With C=C1C(=O)O[C@@H]2C[C@@]3(C)CCC[C@H](C)C3=C[C@H]12 the EC50 was over 50 µM (iPSC-derived cardiomyocytes; concentration-response curve, item: MyBP-C protein level).
CCCCc1nc(Cl)c(CO)n1Cc1ccc(-c2ccccc2-c2nn[nH]n2)cc1 — result for “log2 fold change”: 2.46 (human PBMC; RNA-seq, item: MT1HL1 mRNA; 10 µg/mL, 24 h; relative to: untreated control).
C=C1C(=O)OC2C1CC1OC2C(C)CCC/C(C)=C\CCC1(C)O (stereo not drawn) — result for “fitted top MyBP-C level”: 66% (iPSC-derived cardiomyocytes; concentration-response fit; concentration not given; relative to: vehicle).
The necrotic cells of CC(C)[C@H](N)C(=O)N1CCC[C@H]1B(O)O is reported as 2.79% (MV4-11; annexin V/PI flow cytometry, item: annexin V- PI+; 2 µM, 24 h).
C=C1C(=O)O[C@H]2[C@H]1CC/C(C)=C/CC[C@@]1(C)O[C@@H]21 — result for “fitted bottom MyBP-C/MYH ratio”: 0% (iPSC-derived cardiomyocytes; concentration-response fit; relative to: vehicle).
The growth percent of CCOc1ccc(-c2nc3cc(-c4nc5cc(N6CCN(C)CC6)ccc5[nH]4)ccc3[nH]2)cc1OCC is reported as 22.3% (786-0; cell growth, NCI-60 SRB; 10 µM, 48 h).
With [Cl-].[Cl-].[Ru+2].c1cnc2c(c1)ccc1cccnc12.c1cnc2c(c1)ccc1cccnc12.c1csc(-c2ccc(-c3ccc(-c4nc5c6cccnc6c6ncccc6c5[nH]4)s3)s2)c1 the EC50 was under 100 µM (SK-MEL-28; cytotoxicity, resazurin; dark, normoxia).
CSc1nc(-c2ccc(Cl)cc2)c2c(NC(=O)c3ccccc3)nnc-2[nH]1 has a cell growth of 117% (A498; SRB; 10 µM, NCI60 single-dose screen; relative to: untreated).
COc1cc(/C=C/C(=O)N2CCC=CC2=O)cc(OC)c1OC gave a mRNA level of 97.1 ± 6.2% (MDA-MB-468; quantitative RT-PCR, item: Nestin; 30 µM, 8 h; relative to: untreated).
For Cn1c(Nc2nc3ccc(C(F)(F)F)cc3s2)nc2cc(C(=O)NCCOCCO)ccc21, the fold change was 1.63 (SH-SY5Y; RNA-seq, item: FOSL2 mRNA; 5 µM, 5 h; relative to: untreated cells).
Under “change from baseline”, NC(=O)c1cnc2[nH]ccc2c1N[C@@H]1[C@@H]2CC3C[C@H]1C[C@@](O)(C3)C2 is recorded as 0.05% (flow cytometry, item: CD8+ memory T cells; Japanese healthy subjects, peripheral blood; oral, 100 mg twice daily, day 4).
For CC(C)(O)c1coc(S(=O)(=O)NC(=O)Nc2c3c(cc4c2CCC4)CCC3)c1, the LDH release was 19.9% and 25.2% and 19% (THP-1 GSDMD knockout, LPS-primed; inhibitor; 25 µM, 2 h, added: nigericin 6.25 µM).
For C#CCCC1(CCC(=O)N2[C@H](c3ccc4c(c3)OCO4)c3[nH]c4ccccc4c3C[C@@H]2C(=O)N2CCOCC2)N=N1, “LC3 puncta formation” read “inactive” (HeLa stably expressing GFP-LC3; concentration not given, 4 h).
For COc1cc(OC)c2c(=O)[nH]c(-c3cc(C)c(OCCO)c(C)c3)nc2c1, the viability was 119% (OCI-Ly1; 1 µM, 120 h).
For O=C(/C=C/C=C/C=C/C1CCCCC1)NC1=C[C@@](O)(/C=C/C=C/C=C/C(=O)NC2=C(O)CCC2=O)[C@@H]2O[C@@H]2C1=O, the GI50 was 20.2 µM (WM266-4; CellTiter-Glo; 78 h).
CC(C)C[C@H](NP(=O)(O)O[C@@H]1O[C@@H](C)[C@H](O)[C@@H](O)[C@H]1O)C(=O)N[C@@H](Cc1c[nH]c2ccccc12)C(=O)O — result for Aβ level: “no effect” (SH-SY5Y BACE1-overexpressing; ELISA; supernatant; up to 1 µM, 72 h; relative to: vehicle).
COc1cc(NC(C)CCCN)c2ncccc2c1 (stereo not drawn) gave an EC50 of 19.7 µM (iPSC-derived cardiomyocytes; concentration-response curve, item: MyBP-C/MYH ratio; 24 h).
CCCCN1C[C@H](O)[C@@H](O)[C@@H](O)[C@H]1CO has an IC50 of 15.1 µM (sample BB patient fibroblasts; Gb3 level lowering, LC-MS/MS, item: Gb3 d18:1/22:0; 216 h).
With C=CCNC1=C2C[C@@H](C)C[C@H](OC)[C@H](O)[C@@H](C)/C=C(\C)[C@H](OC(N)=O)[C@@H](OC)/C=C\C=C(/C)C(=O)NC(=CC1=O)C2=O the EC50 was 8.2 µM (iPSC-derived cardiomyocytes; concentration-response curve, item: MyBP-C protein level; 24 h).
For Cc1cccc(-c2[nH]c(CNc3ccccc3F)nc2-c2ccc3ncnn3c2)n1, the XTT absorbance was 4.4 E-1 and 6.3 E-1 and 4.2 E-1 (pomalidomide-resistant MM1.S cells; XTT; 0.25 µM; higher = more viable cells).
Oc1ccccc1-c1n[nH]cc1-c1ccnc2ccccc12 — result for “log2 fold change”: 0.2 (IKS1 (Candida albicans); kinase binding, MIB/MS competition; Candida albicans lysate; 10 µM; relative to: DMSO).
For COc1cc(O)c2c(c1)C(=O)c1cc(C)cc(O)c1C2=O, the cell viability was 97.2 ± 9.23% (HepaRG co-cultured with HK-2; MTT; 33.33 µM, 24 h; relative to: untreated control).
CC(=O)c1nn(-c2ccc(Cl)cc2)/c(=N/N=C(\C)c2ccc(NC(=O)c3ccccc3)cc2)s1 gave a toxicity of 97.1% and 95.6% (HepG2; 1.25 µM).
CC(C)N(C[C@H]1O[C@@H](n2cnc3c(N)ncnc32)[C@H](O)[C@@H]1O)[C@H]1C[C@@H](CCc2nc3cc(C(C)(C)C)ccc3[nH]2)C1 gave a viability of 187% (OCI-Ly1; 0.1 µM, 120 h).
The neuron degeneration of C=CC(=O)N1[C@@H](c2ccc3c(c2)OCO3)c2[nH]c3ccccc3c2C[C@H]1C(=O)NC is reported as 91.1% and 89% (rat DRG neurons; 0.004572 µM, 48 h, added: vincristine 40 nM).
CCc1n(Cc2ccc3ccccc3n2)cc[n+]1Cc1ccc2ccccc2c1 gave a GI50 of at most 3.93 µM (NCI60 NSCLC cell lines; cell growth).
For C#CCCC(=O)SCCNC(=O)CCNC(=O)[C@H](O)C(C)(C)COP(=O)(O)OP(=O)(O)OC[C@H]1O[C@@H](n2cnc3c(N)ncnc32)[C@H](O)[C@@H]1OP(=O)(O)O, the viability was 111% (OCI-Ly1; 0.1 µM, 120 h).
Cc1nc2ccc(OCc3ccc(F)cc3)cc2[nH]1 has a viability of 137 ± 19.6% (sample A patient iPSC-derived NPCs; MTS; 10 µM, 24 h; relative to: vehicle).
For CCn1cc(-c2cc(Cn3ccoc3=N)cc3c2CCN([C@@H](C)c2cc(OC)ccn2)C3=O)c(C(F)(F)F)n1, the EC50 was 0.135 µM (KMS-11; cell growth, inhibitor; 120 h).
CCc1cnc(N2CCC(c3nc(COc4ccc(-n5cnnn5)cc4)cs3)CC2)nc1 — result for “log2 fold change”: -0.0575 (HEK293T; RNA-seq, item: HSPD1 mRNA; 10 µM, 6 h; relative to: vehicle).
For Cn1cc(-c2ccc(-c3cncc(Cl)c3N3CCC4(CCNC4=O)CC3)cc2)cn1, “log2 fold change” read 3.25 (COLO 205; gene expression, microarray, item: CBS mRNA; concentration not given, 2 h; relative to: untreated cells).
Under “log2 fold change”, c1coc(-c2n[nH]cc2-c2ccnc3ccccc23)c1 is recorded as -0.17 (YPK1 (Candida albicans); kinase binding, MIB/MS competition; Candida albicans lysate; 1 µM; relative to: DMSO).
The EC50 of COc1cnc2cccc(N3CCc4c(cc(Cn5ccnc5C)cc4-c4cn(C)nc4C(F)(F)F)C3=O)c2c1 is reported as 0.763 µM (RERF-LC-Ad2; cell growth, inhibitor; 120 h).
The viability of CC(C)(C)OC(=O)Nc1ccc(-c2cc(C(=O)NCCCCCCC(=O)NO)no2)cc1 is reported as 9.14% (OCI-Ly1; 1 µM, 120 h).
C[C@H]1[C@H](C)CC[C@]2(C)CC[C@]3(C)C(=CC(=O)[C@@H]4[C@@]5(C)CC[C@@H](O)[C@](C)(C(=O)NCc6cn(-c7cccc(Br)c7)nn6)[C@@H]5CC[C@]43C)[C@H]12 — result for “PD-1 positive cells”: 8.23% (human PBMCs; flow cytometry; 10 µM; relative to: CD8- T cells).
CCC(=O)N1CCC(COCC(=O)N2CCN(c3nc(-c4cnc(N)nc4C(F)F)nc(N4CCOC[C@@H]4C)n3)CC2)CC1 gave a GR50 of 92.3 nM (HCC1954; resazurin growth rate inhibition; 72 h).
O=C(CCCN1C(=O)c2cccc3cccc(c23)C1=O)NO gave a viability of 130% (OCI-Ly1; 0.1 µM, 120 h).
COc1cccc2c(Nc3ccc4[nH]c(C(=O)N/N=C/c5ccc(SC)cc5)cc4c3)cc(C)nc12 has an apoptotic cells of 41.2 ± 4.63 (COS-7; 10 µM, 24 h, 0.1% DMSO, unit not given; relative to: vehicle control).
For Cc1cc(Nc2ccc(NC(=O)c3ccc(Nc4ccnc5ccccc45)cc3)cc2)nc(N)n1, the viability was 25.2% (OCI-Ly1; 0.5 µM, 120 h).
Under “average fractional effect”, COc1cc2ncnc(Nc3ccc(Oc4ccccc4)cc3C)c2cc1OC.O=C(O)C(F)(F)F is recorded as 36% (LoVo (KRAS G13D); cell viability, resazurin; 3 µM, 72 h, added: trametinib 0 nM; relative to: DMSO).
For CC(C)NCC(O)c1ccc(O)c(O)c1 (stereo not drawn), the sarcomere length was 1.68 µm (mouse ventricular cardiomyocytes; dose not given, 0.107 s).
CC/C(=N\NC(=O)NCc1cccc(O)c1)c1ccc(O)c(C)c1O has a log ratio of 3.59 (SK-OV-3; gene expression, microarray, item: KRT80; 10 µM, 24 h; relative to: DMSO).
For Nc1nc(OCc2cc(Br)cs2)c2[nH]cnc2n1, the viability was 101% (OCI-Ly1; 0.1 µM, 120 h).
O=[N+]([O-])c1ccc(O)cc1 gave an Emax of 8.05% (human cells; reporter gene, agonist, luciferase reporter; relative to: positive control).
For Cc1cc(Nc2ncc(Cl)c(Nc3ccccc3S(=O)(=O)C(C)C)n2)c(OC(C)C)cc1C1CCNCC1, “log2 fold change” read -3.51 (CLB-GE; phosphoproteomics LC-MS/MS, item: ASAP3 phosphorylation; 200 nM, 60 min; relative to: untreated).
For Clc1ccc(-c2csc(NN=C3CCCC3)n2)cc1, the viability was 111% (OCI-Ly1; 0.5 µM, 120 h).
